Measurements from different studies.
“And” joins repeats or separate records; there may be more than shown. ± marks the error that the study gave.
Maoa: Amine oxidase [flavin-containing] A (Maoa, Rattus norvegicus, UniProt P21396)
FFAR4: Free fatty acid receptor 4 (FFAR4, Homo sapiens, UniProt Q5NUL3)
Kir3.1/Kir3.2: Kir3.1/Kir3.2 (Homo sapiens, UniProt P48051+P48549)
NADH dehydrogenase [ubiquinone] iron-sulfur protein 7, mitochondrial/NADH dehydrogenase [ubiquinone] iron-sulfur protein 2, mitochondrial/MT-ND1: NADH dehydrogenase [ubiquinone] iron-sulfur protein 7, mitochondrial/NADH dehydrogenase [ubiquinone] iron-sulfur protein 2, mitochondrial/MT-ND1 (Homo sapiens, UniProt O75251+O75306+P03886)
GAP50: Glideosome-associated protein 50 (GAP50, Plasmodium falciparum, UniProt Q8I2X3)

NCc1ccccc1 — pKa (Maoa; kcat pH profile ES complex, substrate; pH 6.5-9.5): 8.2 ± 0.1
O=c1cc(NCCOc2ccccc2)[nH]c(=O)[nH]1 — inhibition (FFAR4; antagonist, β-arrestin recruitment; CHO cells; 10 µM): 27 ± 6%
O=c1nc(SCc2ccc(C(F)(F)F)cc2)nc(SCc2csc3ccc(Cl)cc23)[nH]1 — decatenated DNA (DNA topoisomerase 2-alpha (TOP2A, Homo sapiens, UniProt P11388); decatenation; 1.95 µM, replicate 2): 0%
Oc1ccccc1-c1n[nH]cc1-c1ccnc2ccccc12 — log2 fold change (Serine/threonine-protein kinase PKH2 (Candida albicans, UniProt Q5A3P6); kinase binding, MIB/MS competition; Candida albicans lysate; 10 µM; baseline: DMSO, negative = stronger binding): 0.29
O=C(COc1cc(Cl)ccc1Cl)Nc1cc(C2CC2)nn1CC(F)(F)F — Emax (Kir3.1/Kir3.2; thallium flux, activator; HEK293; baseline: standard compound): 52%
COc1cc(Nc2ncc3c(n2)-c2ccc(Cl)cc2C(c2c(F)cccc2OC)=NC3)ccc1C(=O)O — remaining activity (MERTK; kinase activity; 1 µM): 85%
CC(=O)N[C@@H](CSC(=O)[C@]1([C@@H](O)C(C)C)NC(=O)[C@H](C)[C@@H]1O)C(=O)O — proteasome activity (Proteasome subunit beta type-5 (Psmb5, Rattus norvegicus, UniProt P28075); RIN-m5F; concentration not given, 24 h, with: Suc-LLVY-AMC; baseline: control): decreased
O=C(c1cc2cc(O)ccc2[nH]1)c1cc2cc(O)ccc2[nH]1 — remaining activity (Transient receptor potential cation channel subfamily M member 8 (TRPM8, Homo sapiens, UniProt Q7Z2W7); antagonist; HEK293; 5 µM; baseline: control): 100 ± 9.57%
O=C(COc1ccc(C(F)(F)F)cc1C(F)(F)F)Nc1cc(C2CC2)nn1C1CCC(F)(F)CC1 — Emax (Kir3.1/Kir3.2; thallium flux, activator; HEK293; baseline: standard compound): 39%
NCc1ccc(C(F)(F)F)cc1 — pKa2 (Maoa; kcat/Km descending limb free E S, substrate; pH 6.5-9.5): 9.3 ± 0.1
Nc1nc2c(F)cccc2[nH]1 — Hill coefficient (Voltage-gated hydrogen channel 1 (HVCN1, Homo sapiens, UniProt Q96D96); proton current, inhibitor, inside-out patch clamp; Xenopus oocytes; dimeric channel): 1.13 ± 0.1
O=S(=O)(O)C1CCNCC1 — normalised MST signal (Sodium- and chloride-dependent taurine transporter (SLC6A6, Homo sapiens, UniProt P31641, Y138A); binding, microscale thermophoresis; 122 nM, room temperature, with: 50 nM labelled protein; higher = more binding): 0.0549
NC(=O)NOCCCCCCCCCCCC[P+](c1ccccc1)(c1ccccc1)c1ccccc1.O=C([O-])C(F)(F)F — oxygen consumption rate (NADH dehydrogenase [ubiquinone] iron-sulfur protein 7, mitochondrial/NADH dehydrogenase [ubiquinone] iron-sulfur protein 2, mitochondrial/MT-ND1; complex I-dependent respiration, Seahorse XF96; HCT-116; 1 µM, 24 h; baseline: control): 76.2 ± 4.73%
N[C@](CCCCB(O)O)(CCN1CCCCC1)C(=O)O — binding stoichiometry (Arginase (Schistosoma mansoni, UniProt Q6WVP6); isothermal titration calorimetry; concentration not given): 0.908 ± 0.003
O=C(COP(=O)(O)O)[C@@H](O)[C@H](O)[C@H](O)COP(=O)(O)O — thermal stability ratio (Eukaryotic translation initiation factor 3 subunit H (Homo sapiens, UniProt O15372); thermal proteome profiling, measured: EIF3H; HepG2 cell lysate; concentration not given, 57 over 37 °C; baseline: compound over control): 0.5 and 0.393 and 0.594
Cc1cc(NC(=O)CNC2CCCNC2)n(C2CCS(=O)(=O)C2)n1 (stereo not drawn) — activity (Kir3.1/Kir3.2; activator, thallium flux; HEK293; concentration not given): inactive
O=c1cc(NCCc2ccccc2Cl)[nH]c(=O)[nH]1 — agonist effect (FFAR4; agonist, β-arrestin recruitment; CHO cells; 10 µM; baseline: 30 µM TUG-891): 0%
Nc1nc2c(ncn2[C@@H]2O[C@H](COP(=O)(O)O)[C@@H](O)[C@H]2O)c(=O)[nH]1 — reaction velocity (GUK1 (Homo sapiens, UniProt Q16774); enzyme activity, NADH-coupled; 125 µM, with: NaCl 50 mM): 0.0663 µM/s and 0.0811 µM/s and 0.104 µM/s
O=c1cc(NCCc2ccc(Br)cc2)[nH]c(=O)[nH]1 — inhibition (FFAR4; antagonist, β-arrestin recruitment; CHO cells; 10 µM): 17 ± 3%
Cc1nn(C2CCS(=O)(=O)C2)c(C)c1NC(=O)COc1ccc(C(F)(F)F)cc1C(F)(F)F (stereo not drawn) — activity (Kir3.1/Kir3.2; activator, thallium flux; HEK293; concentration not given): inactive
Cc1nnc(NCc2cccc(Cl)c2)c2ccccc12 — kon (GAP50; binding, surface plasmon resonance; 1:1 binding model): 25800 M⁻¹ s⁻¹
CCC(=O)NS(=O)(=O)c1ccc(-c2c(-c3ccccc3)noc2C)cc1 — activation (Nuclear receptor subfamily 4 group A member 2, LBD; with RXRα (Homo sapiens, UniProt P43354); reporter gene, full-length heterodimer DR5 reporter; 50 µM; baseline: vehicle): 0.52 fold
NC(=O)NOCCCCCCCCCCCCCC[P+](c1ccccc1)(c1ccccc1)c1ccccc1.O=C([O-])C(F)(F)F — oxygen consumption rate (NADH dehydrogenase [ubiquinone] iron-sulfur protein 7, mitochondrial/NADH dehydrogenase [ubiquinone] iron-sulfur protein 2, mitochondrial/MT-ND1; complex I-dependent respiration, Seahorse XF96; HCT-116; 10 µM, 24 h; baseline: control): 7.14 ± 12.6%
NS(=O)(=O)c1ccc(Nc2nc(-c3ccc(F)cc3F)cs2)cc1 — Hill slope (3-oxoacyl-[acyl-carrier-protein] reductase FabG (fabG, Pseudomonas aeruginosa, UniProt O54438); enzyme activity, inhibitor, NADPH fluorescence; reverse reaction, with: 3-OH-decanoyl-NAC, NADP): 1.4
CC[C@@H](C)[C@@H](NC(=O)[C@@H](Cc1ccc(O)cc1)NC(=O)[C@H]1CCCN1C(=O)[C@@H](CCCNC(=N)N)NC(=O)[C@H](N)Cc1c[nH]cn1)C(=O)N[C@H](C)C(=O)N[C@H](Cc1c[nH]cn1)C(=O)N[C@H](CCCNC(=N)N)C(=O)N[C@@H](C(=O)N[C@H](Cc1ccc(O)cc1)C(=O)N[C@H](CO)C(=O)N[C@H](Cc1ccccc1)C(N)=O)C(C)C — surface expression (Transferrin receptor protein 1 (Tfrc, Mus musculus, UniProt Q62351); flow cytometry; B16; 2 h, unit not given; baseline: 0 h): 0.852 and 0.974
O=c1cc(NCCc2ccc(F)cc2)[nH]c(=O)[nH]1 — activation (FFAR4; agonist, β-arrestin recruitment; CHO cells; 10 µM): 2 ± 1%
Nc1ncnc2c1ncn2[C@@H]1O[C@H](CSCC[C@H](N)C(=O)O)[C@@H](O)[C@H]1O — cooperativity factor σ (O-methyltransferase (Sorghum bicolor, UniProt A0A1B6PFV1); biolayer interferometry; with: saturating PTR): 37.8
CCOc1ccccc1/C=C1\OC(=O)c2c1cc(C)[nH]c2=O — binding free energy (Dual specificity calcium/calmodulin-dependent 3',5'-cyclic nucleotide phosphodiesterase 1C, isoform PDE1C2 (PDE1C, Homo sapiens, UniProt Q14123); enzyme activity, inhibitor; with: 3H-cGMP substrate): -9.31 kcal/mol
CC(C)(C)c1ccc(CCNc2cc(=O)[nH]c(=O)[nH]2)cc1 — activation (FFAR4; agonist, β-arrestin recruitment; CHO cells; 10 µM): -1 ± 1%
C#CCN(CCCN1CCN(C2CCCCC2)CC1)Cc1ccc(C(=O)c2ccc([N+](=O)[O-])cc2)cc1 — selectivity ratio (Sigma intracellular receptor 2 (TMEM97, Homo sapiens, UniProt Q5BJF2); radioligand binding; RT-4 cell membranes; baseline: sigma1 over sigma2 receptor): ~10 fold
CC1=NCC[C@@H](C(=O)O)N1 — thermal shift (uncharacterized protein (Pelagibacter ubique, UniProt Q4FKZ8); differential scanning fluorimetry; Candidatus Pelagibacter ubique; in-house screen): 13.9 °C
CC[C@@H]1[C@H](F)C(=O)N[C@@H]1COc1nccc2cc(C(N)=O)c(OC)cc12 — inhibition (Serine/threonine-protein kinase TBK1 (TBK1, Homo sapiens, UniProt Q9UHD2); ATP-site probe binding, ActivX profiling; THP-1 cell lysate; 0.01 mM, Lys1 site): 1.3%
CCN1CCN(c2cc(N3CCN(CC)CC3)nc(NCCNc3ccnc4cc(Cl)ccc34)n2)CC1 — activation (Nuclear receptor subfamily 4 group A member 2, LBD (Homo sapiens, UniProt P43354); reporter gene, Gal4 hybrid reporter; 1 µM; baseline: vehicle): 1.18 ± 0.05 fold
C=CC(=O)N1CCC(COCC(=O)N2CCN(c3nc(-c4cnc(N)nc4C(F)F)nc(N4CCOC[C@@H]4C)n3)CC2)CC1 — remaining binding (Leukocyte tyrosine kinase receptor (LTK, Homo sapiens, UniProt P29376); KINOMEscan; 1 µM): 91%
Oc1cccc(C(Nc2nccs2)c2ccc3cccnc3c2O)c1 (stereo not drawn) — kon (GAP50; surface plasmon resonance): 445 M⁻¹ s⁻¹
O=c1cc(NCc2cccc3ccccc23)[nH]c(=O)[nH]1 — inhibition (FFAR4; antagonist, β-arrestin recruitment; CHO cells; 10 µM, with: 4 µM TUG-891): 5 ± 16%

For quick reference, copied from above:
Oc1ccccc1-c1n[nH]cc1-c1ccnc2ccccc12 — log2 fold change (Serine/threonine-protein kinase PKH2 (Candida albicans, UniProt Q5A3P6); kinase binding, MIB/MS competition; Candida albicans lysate; 10 µM; baseline: DMSO, negative = stronger binding): 0.29
O=C(COc1cc(Cl)ccc1Cl)Nc1cc(C2CC2)nn1CC(F)(F)F — Emax (Kir3.1/Kir3.2; thallium flux, activator; HEK293; baseline: standard compound): 52%
